# Assay results pooled from the literature.
# “And” joins repeats or separate records; there may be more than shown. ± marks the error that the study gave.
# UCHL1: Ubiquitin carboxyl-terminal hydrolase isozyme L1 (UCHL1, Homo sapiens, UniProt P09936)
# UniProt P09936, sequence (whole entry, looked up): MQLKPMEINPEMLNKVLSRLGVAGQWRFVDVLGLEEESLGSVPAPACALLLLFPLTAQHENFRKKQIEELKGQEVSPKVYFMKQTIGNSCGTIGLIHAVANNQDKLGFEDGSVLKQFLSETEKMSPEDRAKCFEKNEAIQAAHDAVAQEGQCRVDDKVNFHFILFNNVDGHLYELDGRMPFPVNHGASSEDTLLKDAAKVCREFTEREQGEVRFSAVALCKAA
SMILES,tested on,test,conditions,how to read,quantity,value
COc1ccc2c(c1)C(=O)C(=O)N2CCn1cnc2c(N)ncnc21,HepG2,"cell growth, SRB",72 h,,IC50,26.2 ± 3.4 µg/mL
O=C(O)Cc1ccccc1Nc1c(Cl)cccc1Cl,HepG2,"high content imaging, refers to: nuclear size","24 h, representative mode",,point of departure,209 µM and 138 µM
CCN1C(=O)C(C)SC1=NN=C(C)c1c(O)c2ccccc2oc1=O (stereo not drawn),HepG2,"cell growth, MTT",,reference: IC50 BJ-1 over HepG2,selectivity index,> 1.25
CC(=O)c1nn(-c2ccc(C)cc2)/c(=N/N=C(\C)c2ccc(NC(=O)c3ccccc3)cc2)s1,HepG2,MTT,0.156 µM,,cytotoxicity,71.5%
Clc1ccc(C2(c3ccc(-c4ccnc5[nH]ccc45)cc3)CCNCC2)cc1,HepG2,"qPCR, refers to: CYR61","5 µM, 4 h",reference: DMSO,mRNA level,7 fold
c1cnc2c(c1)ccc1cccnc12,HepG2,,25 µg/mL,,IL-4 mRNA level,decreased
CCOC(=O)c1nn(-c2cccc(Cl)c2)/c(=N/N=C(\C)c2ccc(NC(=O)c3ccccc3)cc2)s1,HepG2,MTT,2.5 µM,,cytotoxicity,97.2%
N#C[C@@]1(c2ccc3c(N)ncnn23)O[C@H](CO)[C@@H](O)[C@H]1O,HepG2,qPCR,"10.0 µM, 10 days, 3",reference: untreated,mitochondrial DNA content,90.3 ± 21.9%
CCOC(=O)/C=C\C(=O)OCC,HepG2,"high content imaging, refers to: DNA structure","24 h, representative mode",,point of departure,186 µM and 204 µM
NC(=O)NCCC[C@H](N)C(=O)O,HepG2,"cell viability, MTT",24 h,,IC50,> 10000 µM
O=C(/C=C/c1cccc(S(=O)(=O)Nc2ccccc2)c1)NO,HepG2,,25 µg/mL,reference: untreated,TNF-α mRNA level,increased
COc1ccc(NC(=O)c2c(Nc3ccccc3)sc(C(=O)NN=Cc3ccc(OC)c(O)c3)c2NC(C)=O)cc1,HepG2,ELISA,"IC50, 24 h",,active caspase-7 level,212 ± 20.9 pg/mL
COc1cccc2c1C(=O)c1c(O)c3c(c(O)c1C2=O)C[C@@](O)(C(=O)CO)C[C@@H]3O[C@H]1C[C@H](N)[C@H](O)[C@H](C)O1,HepG2,refers to: PERK protein,"24 h, distribution mode 2",,point of departure,0.219 µM
CCn1c(C)csc1=NN=C(C)c1c(O)c2ccccc2oc1=O,HepG2,"cell growth, MTT",,reference: IC50 BJ-1 over HepG2,selectivity index,> 1.47
CC(=O)c1nn(-c2ccccc2Cl)/c(=N/N=C(\C)c2ccc(NC(=O)c3ccccc3)cc2)s1,HepG2,MTT,0.625 µM,,cytotoxicity,94.1%
Cc1nc2ccccc2n(CC(=O)Nc2ccc(C(=O)Nc3cccc(Cl)c3)cc2)c1=O,HepG2,Annexin V-FITC/PI staining,2.3 µM,,viable cells,63.5 ± 3.18%
CCOC(=O)c1cccc(NC(=O)c2sccc2S(=O)(=O)N(C)c2ccc(OCC)c(OCC)c2)c1,HepG2,"SRE promoter reporter, activator, luciferase reporter",,,EC50,> 25 µM
CCOC(=O)[C@H](Cc1ccccc1)NC(=O)c1cc(Cl)c(OCCN2CCN(C)CC2)c(Cl)c1O.Cl.Cl,HepG2,PAS-seq,"20 µM, 4 h",,genes with significant APA change,921 genes
CCOC(=O)c1nn(-c2cccc(Cl)c2)/c(=N/N=C(\C)c2ccc(NC(=O)c3ccc(Cl)cc3)cc2)s1,HepG2,MTT,2.5 µM,,cytotoxicity,97.1%
CC(=O)c1nn(-c2ccc(Cl)cc2)/c(=N/N=C(\C)c2ccc(NC(=O)c3ccc(C)cc3)cc2)s1,HepG2,,0.078 µM,,viability,79.1%
CC(C)Cc1ccc([C@@H](C)[C@@H](O)CC(C)C)cc1 (racemic),HepG2,,"250 µM, 48 h",,cells killed,88%
CC(=O)c1nn(-c2ccc(Cl)cc2)/c(=N/N=C(\C)c2ccc(NC(=O)c3ccc(Cl)cc3)cc2)s1,HepG2,,1.25 µM,,toxicity,3.91%
Nc1ccn([C@H]2CC[C@@H](CO)O2)c(=O)n1,HepG2,qPCR,"20.0 µM, 10 days, 3",reference: untreated,mitochondrial DNA content,6.9 ± 2.9%
CCOC(=O)c1cccc(NC(=O)c2sc(Cl)cc2S(=O)(=O)N(C)c2ccc(OCC)c(OCC)c2)c1,HepG2,"SRE promoter reporter, activator, luciferase reporter",,,EC50,1.5 µM
CN(CCOc1ccc(CC2SC(=O)NC2=O)cc1)c1ccccn1 (stereo not drawn),HepG2,"respiratory reserve capacity, extracellular flux",6 h,,representative mode point of departure,1.2 µM
CC(NC(=O)C(C#N)=Cc1cccc(F)c1)c1ccccc1 (stereo not drawn),UCHL1,"covalent, intact protein LC-MS",12.5 µM,,labelling,29%
COc1ccc(-n2nc(C(C)=O)s/c2=N\N=C(/C)c2ccc(NC(=O)c3ccc(C)cc3)cc2)cc1,HepG2,,0.156 µM,,viability,53.8%
Cc1ccccc1NC(=O)C(C#N)=Cc1cccc2ccccc12,UCHL1,"covalent, intact protein LC-MS",12.5 µM,,labelling,10.5%
COc1ccc(-n2nc(C(C)=O)s/c2=N\N=C(/C)c2ccc(NC(=O)c3ccccc3)cc2)cc1,HepG2,,5 µM,,viability,3.04%
C[S+](C)[O-],HepG2,propidium iodide staining,"20%, 24 h",,PI-positive cells,> 90%
CCn1c(C)c(C(C)=O)sc1=NN=C(C)c1c(O)c2ccccc2oc1=O,HepG2,"cell growth, MTT",,reference: IC50 BJ-1 over HepG2,selectivity index,> 1.6
COc1ccc(NC(=O)c2c(Nc3ccccc3)sc(C#N)c2NC(=O)CNc2ccc(Cl)cc2)cc1,HepG2,ELISA,"IC50, 24 h",,active caspase-3 level,321 ± 24.8 pg/mL
CCOC(=O)c1sc(=NN=C(C)c2c(O)c3ccccc3oc2=O)n(C)c1C,HepG2,"cell growth, MTT",,reference: IC50 BJ-1 over HepG2,selectivity index,> 2.42
CC(C)(C)c1cc(O)ccc1O,HepG2,"extracellular flux, refers to: reserve respiratory capacity","1 h, representative mode",,point of departure,14.1 µM
N[C@@H](COCC(=O)N1CCC[C@H](C(=O)NCc2nc(-c3ccc(C(F)(F)F)cc3)cs2)C1)c1ccccc1,HepG2,cytotoxicity,,,EC50,~20 µM
CC(=O)Nc1ccc(/C(C)=N/N=c2\sc(C(C)=O)nn2-c2ccc(C)cc2)cc1,HepG2,MTT,2.5 µM,,cytotoxicity,0.59%
O=C(NCCN1CCCC1)c1cc(-c2ccc(CN3CCOCC3)cc2)nc2ccc(F)cc12,HepG2,"cytotoxicity, resazurin",,,EC50,41 µM
CC(=NN=C1SCC(=O)N1C)c1c(O)c2ccccc2oc1=O,HepG2,"cell growth, MTT",,reference: IC50 BJ-1 over HepG2,selectivity index,> 1.52
CCOC(=O)c1cccc(NC(=O)c2sccc2S(=O)(=O)N(C)c2ccc(OCC)cc2)c1,HepG2,"SRE promoter reporter, activator, luciferase reporter",,,EC50,> 25 µM
COc1ccc2nc(N3CCOCC3)c(-c3cc(-c4cccc(O)c4)nc4[nH]nc(N)c34)cc2c1,HepG2,MTT,,reference: WI-38 EC50 over HepG2 IC50,selectivity ratio,1.71
CCCCCNC(=O)N1CCC(CN(Cc2ccc(Cl)cc2)Cc2ccc([N+](=O)[O-])s2)C1 (stereo not drawn),HepG2,"qPCR, refers to: BMAL1 mRNA",concentration not given,reference: REV-ERBα/β siRNA over control siRNA,decrease of effect,85%
CCc1ccc(CCOc2ccc(CC3SC(=O)NC3=O)cc2)nc1 (stereo not drawn),HepG2,refers to: MTT reduction,"24 h, representative mode",,point of departure,46.8 µM

# For quick reference, copied from above:
SMILES,tested on,test,conditions,how to read,quantity,value
CC(=O)c1nn(-c2ccc(C)cc2)/c(=N/N=C(\C)c2ccc(NC(=O)c3ccccc3)cc2)s1,HepG2,MTT,0.156 µM,,cytotoxicity,71.5%
NC(=O)NCCC[C@H](N)C(=O)O,HepG2,"cell viability, MTT",24 h,,IC50,> 10000 µM
COc1ccc(-n2nc(C(C)=O)s/c2=N\N=C(/C)c2ccc(NC(=O)c3ccc(C)cc3)cc2)cc1,HepG2,,0.156 µM,,viability,53.8%
